Measurements of several laboratories.
A part holds a random share of what one study measured. Positions count from the first letter of the parent shown.

Study 1 — technique: protein-binding microarray; form: double-stranded DNA, one strand shown; matrix: in vitro; concentration: 250 nM; notes: 60-bp whole probe; together with: salmon DNA 0.4 mg/ml; reference: random background probes; direction: higher = stronger binding; endpoint: log fluorescence; constant ends, left off below: GCCTAGCAC … GTCTTGATTCGCTTGACGCTGCTG
Target: Interferon regulatory factor 5, full length, phosphomimetic (IRF5, Homo sapiens, UniProt Q13568-2, residues 1-514, K96S/S451D/S453D/S456D/S462D)
TCATGTCTGTGTTTCCTACTGTGCTAG: 0.26 z-score
TCAGGTAGCCTTATCCCACTGTGCTAG: -0.425 z-score
GACGAACTAAGTTTCGAGACGTGCTAG: 4.54 z-score
TTAGAACTGGGGTTTCGATGAGTGCTA: 3.78 z-score
GACGGTTTCGGTTTCTGGACGTGCTAG: 9.81 z-score
GACGGCCTCCTACTGCTGACGTGCTAG: -0.636 z-score
GACGGACTGCTTTTCCTGGCGTGCTAG: -0.292 z-score
TTAGGTATCGGGACTAGGTTAGTGCTA: 1.77 z-score
GACTGACTGGGGTATCGGGACGTGCTA: 0.208 z-score
GACGATTCCAGTTTCGACACGTGCTAG: 6.59 z-score
GACGATTTGAGTTTCGAGACGTGCTAG: 4.68 z-score
TTAGAACTCAGTCTCGATTAGTGCTAG: 0.675 z-score
GACGGGATCGGGTTTCGGGACGTGCTA: 1.82 z-score
GACGGTTTCCGTATCGGGACGTGCTAG: 2.44 z-score
AAAGTTTTTCATTTTTTTTCGTGCTAG: 2.18 z-score
TTAGATATCGGGTATCGAATAGTGCTA: 3.92 z-score
TTAGGTCTCGGACTGGCTTAGTGCTAG: -0.212 z-score
TCACTTCTCCATTTTTCACTGTGCTAG: 1.31 z-score
TTAGATTTTGGGTTTCGATTAGTGCTA: 7.04 z-score
GACGGTATCTGGTATCGGGACGTGCTA: 1.69 z-score
TCATCTATGTCTGTTTTACTGTGCTAG: 1.02 z-score
CCCACCTCTCACGGGCTTGTGTGCTAG: -0.457 z-score
GAAGGTTTCGGTTCCGGGACGTGCTAG: 9.36 z-score
TTATAACTGGGGTATCGATTAGTGCTA: 2.76 z-score
TCAGTTTTTACTTTCTGACTGTGCTAG: 2.57 z-score

Study 2 — target: CCNB2, cyclin fold, Cln2 fusion (human); technique: yeast growth competition, sequencing; matrix: yeast; notes: weak parent motif; reference: not given; direction: higher = stronger binding; endpoint: normalised enrichment score
Starting sequence: E2F2 docking peptide (human); LPAKRKLDLEGIG
R5A: 0.448
K4A: 0.564
K6A: 0.226
G11A: -0.2
P2A: 0.0913
L9A: 0.0264
R5K L9F: 0.556

Study 3 — technique: DHFR PCA, deep sequencing; matrix: yeast; together with: (+)-ABA 710 µM; reference: wild-type fitted maximum; direction: higher = stronger binding; endpoint: relative binding score
Target: ABI1, truncated, D143A, DHFR fusion (Arabidopsis thaliana)
Notes: methotrexate growth selection, single substitutions
Starting sequence: PYL1, truncated, DHFR fusion (Arabidopsis thaliana); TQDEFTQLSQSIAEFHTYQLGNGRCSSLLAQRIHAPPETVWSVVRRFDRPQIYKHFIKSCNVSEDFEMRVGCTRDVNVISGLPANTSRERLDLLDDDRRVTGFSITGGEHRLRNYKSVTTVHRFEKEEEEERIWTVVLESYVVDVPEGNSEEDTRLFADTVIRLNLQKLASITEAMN; partner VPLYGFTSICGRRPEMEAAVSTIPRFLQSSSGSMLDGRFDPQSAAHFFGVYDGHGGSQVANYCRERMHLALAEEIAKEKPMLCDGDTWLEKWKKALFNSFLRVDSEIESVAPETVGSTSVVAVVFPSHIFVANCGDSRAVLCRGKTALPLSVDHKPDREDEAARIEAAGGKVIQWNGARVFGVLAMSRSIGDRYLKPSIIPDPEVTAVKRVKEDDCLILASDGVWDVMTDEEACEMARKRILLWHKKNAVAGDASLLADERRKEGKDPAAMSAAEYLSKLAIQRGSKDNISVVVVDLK
R45S: 92.7%
S117H: 24.5%
C60W: 12.4%
T86L: 96.5%
E147A: 97.1%
L91I: 65.6%
S42Q: 103%
E127A: 101%
G21V: 99.8%
S9Y: 78.1%
L164Y: 105%
L138P: 8.72%
F103T: 11.7%

Study 4 — technique: universal PBM; form: double-stranded DNA, one strand shown; matrix: in vitro; concentration: 600 nM; direction: higher = stronger binding; endpoint: E-score
Target: Sal-like protein 4, full length isoform A (SALL4, Homo sapiens, UniProt Q9UJQ4, residues 1-1053)
UniProt Q9UJQ4, sequence (whole entry, looked up): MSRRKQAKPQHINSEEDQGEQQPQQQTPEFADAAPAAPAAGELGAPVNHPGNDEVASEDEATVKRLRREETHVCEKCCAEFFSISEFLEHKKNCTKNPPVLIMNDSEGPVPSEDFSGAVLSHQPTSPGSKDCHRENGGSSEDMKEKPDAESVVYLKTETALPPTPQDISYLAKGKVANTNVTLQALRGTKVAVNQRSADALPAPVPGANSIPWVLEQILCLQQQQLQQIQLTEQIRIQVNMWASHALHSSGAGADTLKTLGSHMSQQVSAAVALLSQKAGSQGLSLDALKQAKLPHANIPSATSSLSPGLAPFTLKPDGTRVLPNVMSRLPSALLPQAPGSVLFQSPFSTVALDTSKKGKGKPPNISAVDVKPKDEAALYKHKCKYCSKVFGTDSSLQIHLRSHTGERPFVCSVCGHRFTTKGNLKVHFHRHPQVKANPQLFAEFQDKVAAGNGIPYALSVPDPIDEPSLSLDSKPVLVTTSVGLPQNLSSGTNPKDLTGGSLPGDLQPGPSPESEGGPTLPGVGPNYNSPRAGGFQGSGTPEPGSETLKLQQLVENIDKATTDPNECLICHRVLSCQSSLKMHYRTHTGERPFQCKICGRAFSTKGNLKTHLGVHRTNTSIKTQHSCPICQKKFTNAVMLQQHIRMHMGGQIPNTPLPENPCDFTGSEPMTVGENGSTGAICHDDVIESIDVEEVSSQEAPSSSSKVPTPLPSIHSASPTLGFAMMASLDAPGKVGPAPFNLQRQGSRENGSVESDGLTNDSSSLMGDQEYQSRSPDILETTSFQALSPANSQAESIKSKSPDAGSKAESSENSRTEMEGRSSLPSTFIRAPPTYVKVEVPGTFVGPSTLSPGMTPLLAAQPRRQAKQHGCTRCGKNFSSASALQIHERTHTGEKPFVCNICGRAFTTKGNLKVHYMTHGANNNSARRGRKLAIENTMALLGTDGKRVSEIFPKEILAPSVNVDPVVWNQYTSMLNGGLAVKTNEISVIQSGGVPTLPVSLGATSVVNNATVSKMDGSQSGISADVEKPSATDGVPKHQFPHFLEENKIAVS
Notes: 8-mer, flanks averaged, mean of replicates
CCTTAAGG: -0.117
CGTCTCTC: -0.0578
CAAGAGTA: 0.03
GACCGTGC: -0.284
ATTCACAG: 0.101
GGTGGTAA: 0.0878
AGCATGAC: -0.152
AACACCTA: 0.0622
AAGGGCTG: -0.234
ACACAGAT: 0.145
AGCTCGTG: -0.162
GGACAGAC: -0.261
GAAACTTA: 0.244
CATGTTCG: 0.0115
CCTGAACA: 0.0503
AACGCCGA: -0.0921
CGATTTTA: 0.203
ATCCTACC: -0.188
AAATCTCG: 0.15

Study 5 — target: UBE2Q2 UBC core domain (UniProt Q8WVN8); technique: yeast two-hybrid; matrix: yeast; notes: mostly zero background; reference: not given; direction: higher = stronger interaction; endpoint: lacZ reporter activity
UniProt Q8WVN8, sequence (whole entry, looked up): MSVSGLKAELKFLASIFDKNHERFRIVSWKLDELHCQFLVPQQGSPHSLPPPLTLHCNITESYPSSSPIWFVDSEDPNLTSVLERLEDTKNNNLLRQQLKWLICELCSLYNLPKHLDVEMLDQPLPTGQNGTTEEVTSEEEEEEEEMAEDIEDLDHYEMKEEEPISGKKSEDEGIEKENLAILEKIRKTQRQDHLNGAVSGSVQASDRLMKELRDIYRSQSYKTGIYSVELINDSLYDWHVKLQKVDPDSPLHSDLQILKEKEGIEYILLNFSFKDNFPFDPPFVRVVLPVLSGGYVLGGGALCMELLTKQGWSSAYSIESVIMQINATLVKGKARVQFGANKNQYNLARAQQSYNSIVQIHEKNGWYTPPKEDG
B1: MKRN1 RING domain (UniProt Q9UHC7); chain FAVQRSKDMVCGICMEVVYEKANPSERRFGILSNCNHTYCLKCIRKWRSAKQFESKIIKSCPECRITSNFVIPSE
B2: TRIML1 RING domain (UniProt Q8N9V2); chain LMENLREELTCFICLDYFSSPVTTECGHSFCLVCLLRSWEEHNTPLSCPECWRTLEGPHFQS
B3: SH3RF2 RING domain (UniProt Q8TEC5); chain DDLTLLDLLECPVCFEKLDVTAKVLPCQHTFCKPCLQRVFKAHKELRCPECRTPVFSNIEAL
B4: TRIM5 RING domain (UniProt Q9C035); chain ILVNVKEEVTCPICLELLTQPLSLDCGHSFCQACLTANHKKSMLDKGESSCPVCRISYQPENIRP
B5: TRIM5 RING domain (UniProt Q9C035); chain LREVKLSPEGQKVDHCARHGEKLLLFCQEDGKVICWLCERSQEHRGHHTFLTEEVAREYQVKL
B6: TRAF5 RING domain (UniProt O00463); chain FVERLEERYKCAFCHSVLHNPHQTGCGHRFCQHCILSLRELNTVPICPVDKEVIKSQEVFK
B7: TRIM40 RING domain (UniProt Q6P9F5); chain LQKDNQEEGVCPICQESLKEAVSTNCGHLFCRVCLTQHVEKASASGVFCCPLCRKPCSEEVLG
MPIRALCTICSDFFDHSRDVAAIHCGHTFHLQCLIQWFETAPSRTCPQCRIQVGKRTIIN (TRAIP RING domain (UniProt Q9BWF2)): 0
QVDKAVFHMQSVKCLKCQEQKRAVLPCQHAALCELCAEGSECPICQPGRAHTLQS (UNK RING domain (UniProt Q9C0B0)): 0
GAAPGPEAAECLVCSELALLVLFSPCQHRTVCEECARRMKKCIRCQVVVSKKLRPD (MIB2 RING domain (UniProt Q96AX9)): 0
B1 (MKRN1 RING domain): 0
B2 (TRIML1 RING domain): 0
B3 (SH3RF2 RING domain): 0
B4 (TRIM5 RING domain): 0
B5 (TRIM5 RING domain): 0
DHGAVGQEMCCPICCSEYVKGEVATELPCHHYFHKPCVSIWLQKSGTCPVCRCMFPPPL (PJA1 RING domain (UniProt Q8NG27)): 0
B6 (TRAF5 RING domain): 0
B7 (TRIM40 RING domain): 0

Study 6 — technique: aptamer microarray, sandwich; form: DNA with 2'F-ANA; matrix: in vitro; concentration: 200 nM; together with: Cy3 exosite-II aptamer, 400 nM; direction: higher = stronger binding; endpoint: mean fluorescence intensity; strand: GGTTGGTGTGGTTGG
Target: Prothrombin, mature alpha-thrombin (F2, Homo sapiens, UniProt P00734)
Notes: whole 15-mer aptamer, many near background
2'F-ANA at 3 4 5 6 8 9 12: 214 a.u.
2'F-ANA at 3 4 13 15: 584 a.u.
2'F-ANA at 2 4 8 9 12: 640 a.u.
2'F-ANA at 1 3 4 6 10 13 14: 48.4 a.u.
2'F-ANA at 4 5 7 8 10 12 13 14 15: 43.6 a.u.
2'F-ANA at 1 3 11 12 13 14: 112 a.u.
2'F-ANA at 1 2 4 6 7 8 10 13: 49.2 a.u.
2'F-ANA at 3 4 5 6 8 9 11 12 13 14 15: 53.1 a.u.
2'F-ANA at 3 4 5 8 9 13 14 15: 50.8 a.u.
2'F-ANA at 1 3 4 5 7 9 10 13 15: 45.3 a.u.
2'F-ANA at 1 2 6 9: 139 a.u.
2'F-ANA at 1 3 5 6 10 11 13: 49.3 a.u.
2'F-ANA at 4 5 8 9 13 15: 49.5 a.u.
2'F-ANA at 1 2 4 5 7 8 9 12 15: 145 a.u.
2'F-ANA at 4 7 8 10 11 12 13 14: 60.4 a.u.
2'F-ANA at 1 2 3 6 9 10 11 13 14 15: 58.5 a.u.
2'F-ANA at 4 5 10 12 13 14 15: 46 a.u.

Excerpt of the above (study 3):
T86L: 96.5%
E147A: 97.1%
L91I: 65.6%
S42Q: 103%
E127A: 101%
G21V: 99.8%
S9Y: 78.1%
